Measurements from different studies.
Protocols differ between the studies behind these lines.

SMILES	test	test system	setting	quantity	value
C[C@H]1CNCCCN1S(=O)(=O)c1cccc2cncc(F)c12	refers to: Eczema	healthy adult men	topical ocular, 1 drop per eye twice daily, 8 days	adverse events	5.6%
CC(=O)O[C@H]1C(=O)[C@@]2(C)[C@H]([C@H](OC(=O)c3ccccc3)[C@]3(O)C[C@H](OC(=O)[C@H](O)[C@@H](NC(=O)c4ccccc4)c4ccccc4)C(C)=C1C3(C)C)[C@]1(OC(C)=O)CO[C@@H]1C[C@@H]2O	refers to: decreased appetite	patients with advanced solid tumours	intravenous, dose not given, phase Ib, related to compound	adverse events, all grades	31%
CC(=O)N(C)[C@H]1CCN(C(=O)c2cnc3c(c2)C[C@](C)(c2ccc(F)cc2)N3)C1	refers to: Itching	human	oral, 15 mg once daily	adverse event duration	2 days
Cc1cc(C)c(CNC(=O)c2cc(Cl)c3c(c2C)O[C@@](C)([C@H]2CC[C@H](N(C)C)CC2)O3)c(=O)[nH]1	–	relapsed/refractory NHL patients	oral, 200 mg once daily, onset after cycle 1 day 1	adverse event Fatigue	29.2%
C=CC[C@@H]1/C=C(\C)C[C@H](C)C[C@H](OC)[C@H]2O[C@@](O)(C(=O)C(=O)N3CCCC[C@H]3C(=O)O[C@H](/C(C)=C/[C@@H]3CC[C@@H](O)[C@H](OC)C3)[C@H](C)[C@@H](O)CC1=O)[C@H](C)C[C@@H]2OC	refers to: gastrointestinal disorders	kidney transplant recipients	oral, dose not given	adverse drug reactions	22%
CCO[C@H]1CCN(Cc2c(OC)cc(C)c3[nH]ccc23)[C@H](c2ccc(C(=O)O)cc2)C1	refers to: dry throat	PNH patients with active haemolysis	oral, 100 mg, extension phase	adverse event incidence	0%
CC(C)C[C@H](NC(=O)CNC(=O)c1cc(Cl)ccc1Cl)B(O)O	–	newly diagnosed multiple myeloma patients	oral, dose not given, Nausea, maintenance	adverse events grade 3	6%
CC#CC(=O)N[C@H]1CCCN(c2c(F)cc(C(N)=O)c3[nH]c(C)c(C)c23)C1	–	healthy volunteers	oral, 1 mg single dose, SAD phase I	adverse events	83.3%
